Results collected from several papers.
Each numbered part is a random draw from the data of one study; scales do not carry over between parts. Changes are numbered by the printed parent chain.

Series 1
Target: RNA binding protein fox-1 homolog 2, RRM domain, GST-SBP tag (RBFOX2, Homo sapiens, UniProt O43251-10, residues 100-194)
Technique: RNA Bind-n-Seq
Form: RNA
Sample: in vitro
Tested at: 365 nM
Notes: natural RNA segment, single round, ends assumed
Relative to: no-protein control
Direction: higher = stronger binding
Residues (chain): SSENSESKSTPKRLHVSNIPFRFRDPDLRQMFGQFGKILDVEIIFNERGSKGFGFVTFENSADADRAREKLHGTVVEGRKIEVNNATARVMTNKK
`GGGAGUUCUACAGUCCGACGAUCUUAUAUGUAUGAAUAUUUCAUAGUUUUGCAUAUCAGAUGUAGGCAUACAGACAAAUACAUAAACCAAUGAAUAUAUUACAUAUUCUGUGUUCCAAUAAAACUUUAUUUAUUGGAAUUCUCGGGUGCCAA` — result for “RBNS enrichment (R)”: 0.327.
For `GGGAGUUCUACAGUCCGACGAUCGCUGGUAGGGAAAGACUCUGCACCUGCUGUCUUAGGGAAGAAAUGGUUCAAAUCCAUGUGGUGACAUUGCAUUAGUCUCCCUUUCACUGUUUUCUUAUUCUGUAAUUGUUUGGAAUUCUCGGGUGCCAA`, “RBNS enrichment (R)” read 3.55.
`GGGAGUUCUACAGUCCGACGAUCUGGAGAUUAGAACUGUUAGGAGCGCCACUCCCUGCCAUGUUGUCCUCGUACGCAGGCAGAUGACACCUUAUGCCAACAGGGACGCCUGUGAGGCCGAGACCUUGAUGGGAUGGAAUUCUCGGGUGCCAA` — result for “RBNS enrichment (R)”: 0.438.
`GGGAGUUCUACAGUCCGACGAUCGCCUUGUGCUGGGACAACCUCUCUCUUGCCUUACCUCAGAGAGGGACUAUGCCCUGACCCCUCCUUUCUGAAAAUCAGUGCCCUCCCUGUUGCUCUAGGAGGCUCCUGCUUGGAAUUCUCGGGUGCCAA` — result for “RBNS enrichment (R)”: 0.349.
For `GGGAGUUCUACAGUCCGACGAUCGAGUGAUCUAUGUCUCUUCCCCCCAGCAGCUGGGACCAGUCCUAGCCCCGUCCCCAACCCCUUUCCCUUGGGGAGUUGGGGGAAUUCCUGCCAAGCACCUUGAAUGGGAGUGGAAUUCUCGGGUGCCAA`, “RBNS enrichment (R)” read 0.316.
Under “RBNS enrichment (R)”, `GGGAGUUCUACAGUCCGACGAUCUUCUAAAGUGGCGUUUGCUGUGUGCUUGAGAGUAACACUGCACGCUGCAGGGGCUGUUGCAGCAGUCAGUCCCAGGAAGCCACAGCGCUUGUAGGAUCUGCUAGGACCCUUGGAAUUCUCGGGUGCCAA` is recorded as 0.805.
Under “RBNS enrichment (R)”, `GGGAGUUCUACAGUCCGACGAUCAAACACAUCUGUCAUUGUCUUGUGGACGUGGAAAGGAAGCUACUGUCCUCACACUCCUGGAUCACUGAGCAGAAUGAACAUUUUCUCCAGCCUCUGAGACUAUCGCUCUUUGGAAUUCUCGGGUGCCAA` is recorded as 5.14.
`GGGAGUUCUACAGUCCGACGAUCAAAACUACAUAGUCUUUCCUUAUUUUAUUUAGUAUGACAUUGUCAAUAGUAAUAAGGUAGCAUUUCUAGUCUUCCUCAUUACAAAAUGUAGCUGUUUUCUAAGUAGGAAAUGGAAUUCUCGGGUGCCAA` — result for “RBNS enrichment (R)”: 0.268.
Under “RBNS enrichment (R)”, `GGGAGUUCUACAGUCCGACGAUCUCGGGAGGGAGGCAGGGGCAGGCGGAUUUCUAAAUUCCAGGACAGCCUGGGCUAUACAGAGAAACCCUGUCUUGAACCCCCCCCCCCCCCGCCACCCCCAAAAAAAGGUUUGGAAUUCUCGGGUGCCAA` is recorded as 0.261.
`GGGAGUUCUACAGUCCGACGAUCGUAUGGAUGUGCACAGUAUGUUUGAUUUUUAUCCACAAGAAUGAAUCUGAUUCAGAAUGCUUUUCUCAGCUGACAUACAGAGCACUAAAUAUUUUAAGGCAAGUCCAUAGUGGAAUUCUCGGGUGCCAA` — result for “RBNS enrichment (R)”: 0.717.
`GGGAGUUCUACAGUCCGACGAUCUAGAAAGCUUUGGAAGUUUUUGUAGAUAGUAGAAAGGGGGGCAUCACCUGAGAAAGAGCUGAUUUUGUAUUUCAGGUUUGAAAAGAAAUAACUGAACAUAUUUUUUAGGCUGGAAUUCUCGGGUGCCAA`: “RBNS enrichment (R)” 1.05.
Under “RBNS enrichment (R)”, `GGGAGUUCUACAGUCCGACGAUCGACAUUGAGGCCCAGCUGCCAAGUGAAAGUUGCACCAUGUUUCAGAACUCUUGCCCUCCCUCUCAUUCCCAUCCUUCCUGGUACUGCAGUCAACCAAAGAUGGCAUGACUUGGAAUUCUCGGGUGCCAA` is recorded as 1.38.

Series 2
Target: Interferon regulatory factor 5, full length, phosphomimetic (IRF5, Homo sapiens, UniProt Q13568-2, residues 1-514, S451D/S453D/S456D/S462D)
Technique: protein-binding microarray
Form: double-stranded DNA, one strand shown
Sample: in vitro
Tested at: 940 nM top
Notes: 60-bp whole probe
Together with: salmon DNA 0.4 mg/ml
Relative to: random background probes
Direction: higher = stronger binding
Constant ends, left off below: GCCTAGCAC … GTCTTGATTCGCTTGACGCTGCTG
For `TCATTTTTGCTTACGATACTGTGCTAG`, “fitted relative affinity” read 0.996 z-score.
For `GACGATATCGGGTATCGATACGTGCTA`, “fitted relative affinity” read 3.92 z-score.
`GACGGTATCCTTTTCCTGCCGTGCTAG` — result for “fitted relative affinity”: 0.498 z-score.
Under “fitted relative affinity”, `TTAGAATTGAGACTGGATTAGTGCTAG` is recorded as -0.107 z-score.
`TTACGTATCCTTTTCCTTTAGTGCTAG` — result for “fitted relative affinity”: 1.56 z-score.
`GTCGATCTCAGTCTCGAGACGTGCTAG` — result for “fitted relative affinity”: 2.55 z-score.
`TTAGAAATGGGGTATCGATTAGTGCTA` — result for “fitted relative affinity”: 2.77 z-score.
Under “fitted relative affinity”, `TCAGATCTCAGTCTCGATTAGTGCTAG` is recorded as 3.31 z-score.
Under “fitted relative affinity”, `AAGGAAATCGGTGATCAGTCTGTGCTA` is recorded as -0.416 z-score.
Under “fitted relative affinity”, `GACGATTCCAGTTTCTAGACGTGCTAG` is recorded as 1.32 z-score.
`GACGGCCTCCTTCTCCTGACGTGCTAG`: “fitted relative affinity” 0.105 z-score.

Series 3
Target: CCNB1, cyclin fold, Cln2 fusion (human)
Technique: yeast growth competition, sequencing
Sample: yeast
Notes: weak parent motif
Relative to: not given
Direction: higher = stronger binding
Starting sequence: ASZ1 docking peptide (human); GFGFLLFICKLTF
Under “normalised enrichment score”, `GFGFLLFICKATF [L11A]` is recorded as 0.377.
`GAGFLLFICKLTF [F2A]` — result for “normalised enrichment score”: 0.3.
`GFGFLLAICKLTF [F7A]` — result for “normalised enrichment score”: -0.0845.
Under “normalised enrichment score”, `GFGFLLFICKLTA [F13A]` is recorded as 0.592.
`GFGFALFICKLTF [L5A]` — result for “normalised enrichment score”: 0.36.
For `GFGFLLFACKLTF [I8A]`, “normalised enrichment score” read 0.3.

Other studies, line by line
With `PhoQ, residues 284 288 289 292 302 303 SSTLSG` the fold induction was 4.24 (PhoP, residues 12 14 15 18 19 GHCSL (Escherichia coli, UniProt P23836); Sort-seq, refers to: YFP reporter; E. coli; PhoQ-PhoP variant library, together with: 10 µM Mg2+; relative to: high Mg2+ state, higher = stronger signaling).

For quick reference, copied from above (series 1):
Under “RBNS enrichment (R)”, `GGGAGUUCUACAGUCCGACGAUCUUCUAAAGUGGCGUUUGCUGUGUGCUUGAGAGUAACACUGCACGCUGCAGGGGCUGUUGCAGCAGUCAGUCCCAGGAAGCCACAGCGCUUGUAGGAUCUGCUAGGACCCUUGGAAUUCUCGGGUGCCAA` is recorded as 0.805.
For `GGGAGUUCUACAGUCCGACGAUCGAGUGAUCUAUGUCUCUUCCCCCCAGCAGCUGGGACCAGUCCUAGCCCCGUCCCCAACCCCUUUCCCUUGGGGAGUUGGGGGAAUUCCUGCCAAGCACCUUGAAUGGGAGUGGAAUUCUCGGGUGCCAA`, “RBNS enrichment (R)” read 0.316.
Under “RBNS enrichment (R)”, `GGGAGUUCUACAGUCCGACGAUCUCGGGAGGGAGGCAGGGGCAGGCGGAUUUCUAAAUUCCAGGACAGCCUGGGCUAUACAGAGAAACCCUGUCUUGAACCCCCCCCCCCCCCGCCACCCCCAAAAAAAGGUUUGGAAUUCUCGGGUGCCAA` is recorded as 0.261.
`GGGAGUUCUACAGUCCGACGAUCGCCUUGUGCUGGGACAACCUCUCUCUUGCCUUACCUCAGAGAGGGACUAUGCCCUGACCCCUCCUUUCUGAAAAUCAGUGCCCUCCCUGUUGCUCUAGGAGGCUCCUGCUUGGAAUUCUCGGGUGCCAA` — result for “RBNS enrichment (R)”: 0.349.
